Results of several laboratories.
Numbered parts are unrelated; each lists some results of a single study.

Series 1
Target: Sal-like protein 4, full length isoform A (SALL4, Homo sapiens, UniProt Q9UJQ4, residues 1-1053)
Chain of UniProt Q9UJQ4 (whole entry, looked up): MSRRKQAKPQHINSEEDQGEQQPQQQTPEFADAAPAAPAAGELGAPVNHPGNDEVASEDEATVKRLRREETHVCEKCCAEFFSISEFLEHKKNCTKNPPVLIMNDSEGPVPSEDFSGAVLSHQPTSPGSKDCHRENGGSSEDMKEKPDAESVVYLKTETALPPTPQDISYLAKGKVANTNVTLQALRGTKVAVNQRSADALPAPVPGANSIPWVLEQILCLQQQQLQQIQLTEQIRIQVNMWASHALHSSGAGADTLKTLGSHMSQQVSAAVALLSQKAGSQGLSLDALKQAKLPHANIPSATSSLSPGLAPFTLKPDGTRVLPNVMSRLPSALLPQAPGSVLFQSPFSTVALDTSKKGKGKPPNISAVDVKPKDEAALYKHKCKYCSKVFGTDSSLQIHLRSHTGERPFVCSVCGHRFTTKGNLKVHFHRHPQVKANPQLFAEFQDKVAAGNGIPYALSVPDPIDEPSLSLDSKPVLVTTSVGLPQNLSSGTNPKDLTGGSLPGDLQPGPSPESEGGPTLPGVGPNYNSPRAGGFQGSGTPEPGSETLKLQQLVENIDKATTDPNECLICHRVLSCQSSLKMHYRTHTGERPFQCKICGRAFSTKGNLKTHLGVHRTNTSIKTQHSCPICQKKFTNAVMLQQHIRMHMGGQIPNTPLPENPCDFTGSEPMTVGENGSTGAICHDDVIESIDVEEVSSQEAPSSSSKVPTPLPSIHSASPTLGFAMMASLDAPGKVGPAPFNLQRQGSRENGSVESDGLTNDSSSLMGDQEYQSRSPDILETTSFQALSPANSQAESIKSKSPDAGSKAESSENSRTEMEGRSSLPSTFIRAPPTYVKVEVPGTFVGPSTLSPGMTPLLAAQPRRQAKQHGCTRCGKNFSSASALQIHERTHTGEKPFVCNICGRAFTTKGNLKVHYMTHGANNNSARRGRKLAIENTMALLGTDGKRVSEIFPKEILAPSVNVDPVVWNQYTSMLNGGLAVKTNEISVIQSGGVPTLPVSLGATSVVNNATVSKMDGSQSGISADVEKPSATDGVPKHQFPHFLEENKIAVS
Method: universal PBM
Form: double-stranded DNA, one strand shown
Medium: in vitro
Tested at: 600 nM
Notes: 8-mer, flanks averaged, mean of replicates
Direction: higher = stronger binding
Oligonucleotide	E-score
CAAAGTTC	-0.111
CTGCTCTC	-0.0629
ATTCATAG	0.316
CGTCGATA	0.0309
GTCTAGGA	0.024
AAACCAGT	0.0637
AACGGGGG	-0.252
AATCCCTC	-0.0553
AGTAAGGG	0.00639
GCATCTAC	0.0404
AGAATCCA	-0.0878
ACCTTGCC	-0.0655
CGCGTTGA	-0.181
ATGTCTTG	0.177
CTCGGGGC	-0.329
CGAGCAAA	-0.102
AGCAAGGG	-0.0951
AAGCAATT	0.315
CGAAAAAA	0.254
AGTCGGAC	-0.167

Series 2
Target: RNA binding protein fox-1 homolog 2, RRM domain, GST-SBP tag (RBFOX2, Homo sapiens, UniProt O43251-10, residues 100-194)
Method: RNA Bind-n-Seq
Form: RNA
Medium: in vitro
Tested at: 365 nM
Notes: natural RNA segment, single round, ends assumed
Baseline: no-protein control
Direction: higher = stronger binding
Shared flanks, not repeated: GGGAGUUCUACAGUCCGACGAUC … UGGAAUUCUCGGGUGCCAA
Residues (chain): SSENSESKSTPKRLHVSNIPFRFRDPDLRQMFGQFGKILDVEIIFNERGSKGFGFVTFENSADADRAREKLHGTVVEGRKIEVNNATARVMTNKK
Oligonucleotide	RBNS enrichment (R)
CAGGUUGUUGACAGUUCCUGGUUGACCCACAGCUACCCAUGUCAGUUAUCUCCACUAACAUAUCCAAGAAUCUUUGUAGGACAAUUUCUCCACCUGCAAGGUCUUUCAGG	0.634
AUCUGGCUGGCUGCCUGCCUUAAACCCCCACCAAAGCUCCUUUUCAUAAAGGGGCUACCUUGAGAGAAAAUACAAACGCUCUCCUGUUGAUGAUUUGUGCAUUUUAAAAA	2.65
GAAUGACGAUUUUGAUUAGGCCACGUAGGGUGAAAACCGCAGAAAAAUGAUUGGAAAUGAACUCUUGCCCUGGAAUAACCUUGACAAUUCAAACCGCGAUGUUUACUUUU	0.611
CCCACAGAACCUAAUCUGAACAAUCCCCGAUGAUUCCCUCUGCUUUUUGAAUGCUUCCAAGACUUAUCAUGAAAACUGUCAAUGGAUAAUCAUUUCCUGCUGACUUUGCA	0.769
AGGUUGCCACCCUUCAUAGAGUUUAGGCAUGCAGUUUGCUUAGCCAGUGUAGGAAGCCUCAUGAGAACAGAACCAUUAACAGCCAGAGUGCCAAUGGUGGGAUCAGCAGG	0.497
GACUAACUCUUCAGUUAAGAACACUGUAGAAAUGGUAGACCAACUUAAAGUCUACCUUUUAACAAUCUUUACCCCAAACCUAAAGAUUCUAGGGGUCACUUAUCUCUAUU	0.4
AUUUAUGAUGAAAUAUUUUAAUUAGGUCAAUUAUCUAGAAUUACCUAGUUUUGUCUAUAUAUCUUUUCCAUGAAAUUAUAGCUAUCUAUGUAUUUGUAGUUGUUUCUUUC	0.622
CCAGGACACAUUUCCACUAUAAUUUUACAAAGUUAAAUUUAUAAGCUAGCAUUAAGUAAAGUGAAGUCCAGCUCCCUUGCUAAAAAUAACUAGAGGUAAUAAUUGGUAUU	0.561
CAUAGAGGUACCACCACAAGGGAUGCCCUACUCUCUCGCAGCUCUUGAAAGCAUCUGUUUGAGGGAAAGGUCUCUGGGCAAGCAAGUGGUUAUUUGGAUUGCUUGCUUCC	0.353
AAAUACAUGGGAAAAGUGCUCCCCCUGGAAGAGUCACUGUCUGAAUGAAGCAAAGUUCCCUCUCAGCAAACACUGAGAGGCCAUGGAGAAGGACUUCUAGAAUGAAUGAA	5.68
AGAUAAGGGAGGCCCCUCCCCCCUCCCGGAGGCCAGGACCCCGUGGGGCGGGGGAGAGGACGUCUCUGCGGGCCCCCUUCACCCCUUUUCUGUCUGCACCCCUUGUUCCC	0.379
GGAGGUACUGUGAGGAAGAGCAGGCACCAGCAGCAGAAUGGGGAAUGGAGAGGUGGGCAGGGGUUCCAGCUUCCCUUUGAUUUUUUGCUGCAGACUCAUCCUUUUUAAAU	0.501

Series 3
Target: Histone acetyltransferase KAT6A, both winged helices, GST fusion (KAT6A, Homo sapiens, UniProt Q92794, residues 1-181)
Method: protein binding microarray
Form: double-stranded DNA, one strand shown
Medium: in vitro
Tested at: not given
Notes: 8-mer, flanks averaged, mean of 2 arrays, mostly near background
Baseline: not given
Direction: higher = stronger binding
Construct (chain): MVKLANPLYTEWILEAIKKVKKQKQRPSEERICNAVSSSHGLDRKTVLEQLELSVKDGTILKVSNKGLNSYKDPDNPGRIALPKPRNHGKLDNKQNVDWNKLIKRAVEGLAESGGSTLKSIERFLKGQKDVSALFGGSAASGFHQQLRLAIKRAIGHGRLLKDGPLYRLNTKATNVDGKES
Oligonucleotide	E-score
ATGAGAAT	-0.0649
CTGGGCAC	-0.0816
ACCTTTGA	-0.0562
AACGTGCG	0.152
GGCGAATA	0.125
CACGTACA	-0.23
CGGACAAG	0.237
GCTCTACA	0.00816
GAAGACAC	0.0481
AATCATCA	-0.0796
CAACAACG	-0.0349
AATATGTA	-0.0583
CACAGATG	-0.192
ATCATGAC	-0.165
AGGACGCC	0.065
ACCATCCT	-0.0372
GCGTCTTA	0.162
CCACTCTA	-0.274
AGCTCAAA	-0.0322
GCCTTCGC	0.093
CAGATGCA	-0.188
TATCTCAA	-0.153
ATGATTTA	-0.129
TGCATCCA	-0.166
CATTCCCG	0.244

Series 4
Target: Prothrombin, mature alpha-thrombin (F2, Homo sapiens, UniProt P00734)
Method: aptamer microarray, sandwich
Form: DNA with 2'F-ANA
Medium: in vitro
Tested at: 200 nM
Notes: whole 15-mer aptamer, many near background
Together with: Cy3 exosite-II aptamer, 400 nM
Direction: higher = stronger binding
Oligonucleotide: GGTTGGTGTGGTTGG
Modification	mean fluorescence intensity [a.u.]
2'F-ANA at 2 5 7 8 9 10 14 15	58.6
2'F-ANA at 1 2 4 5 6 7 8 9 13 14	50.2
2'F-ANA at 2 11 12	661
2'F-ANA at 2 3 6 9 10 11 14 15	219
2'F-ANA at 1 6 8 10 13 14	48.6
2'F-ANA at 1 5 7 8 9 10 13	47.3
2'F-ANA at 2 4 5 7 10	46.2
2'F-ANA at 3 11 15	1000
2'F-ANA at 1 4 6 12 15	256
2'F-ANA at 3 4 7 8 9 10 11 12 14	348
2'F-ANA at 5 6 7 10 11 13 15	46.5
2'F-ANA at 2 3 4 6 8 9 10 11 12 13 14 15	128
2'F-ANA at 1 3 7 9 11	309
2'F-ANA at 2 3 4 5 6 8 9 10 12 13 15	54.8
2'F-ANA at 2 3 5 7 11 14 15	48.7
2'F-ANA at 2 7 12 14 15	216
2'F-ANA at 1 2 4 8 11 13 15	102
2'F-ANA at 3 6 8 9 10 11 12 13 14 15	358
2'F-ANA at 2 3 4 5 7 8 11 13 15	65.6

Series 5
Target: Fragile X messenger ribonucleoprotein 1, C-terminal low-complexity region (Fmr1, Mus musculus, UniProt P35922)
Method: RNA Bind-n-Seq
Form: RNA
Medium: in vitro
Tested at: 200 nM
Notes: whole 134-nt RNA, ends assumed
Together with: 150 mM LiCl
Baseline: input library
Direction: higher = stronger binding
Each molecule: 7-deaza-guanosine replaces G
Shared flanks, not repeated: GGGAGUUCUACAGUCCGACGAUC … UGGAAUUCUCGGGUGUCAAGG
Oligonucleotide	log2 enrichment
GUUAAUUCCACCAUCCCCAUCACAGCAGAAGUUUUCAAGAAGCAUGGAGUGUACAACCCCAACAAAAUCUUCGGCGUGACGACCCUGGAC	2.05
UAACUUUAGAGGAGGAUCUGAUGGAUAUGGCAGUGGACGUGGAUUUGGGGAUGGCUAUAAUGGGUAUGGAGGGGGACCUGGAGGUGGCAA	0.718
ACCAUGCAGGUGGGCAUCUUUGGGAAGUGGGGCAAGGGGGGGAUAGGGAGGGGGGUAACACUUUGGGAACUGGUGGUCCCAGGUCGUUUC	1.56
GUCCUGUGCUACACAUCGUAUGUACCGAAUCGUGUGUGUGUGUGUGUGUGUGUGUGUGUAAAGUAUUAUGUUACGCCGUUCGGAUCUGCA	-0.28
GUCCUGUGCUACACAUCGUAUGUACCGAAUCGGGGUUUUUUUGGGGAAAGGGGAGGGGAAAGUAUUAUGUUACGCCGUUCGGAUCUGCAC	0.13
UGGGAGGUGGAUUUUGUUUAUUUUUUUAGCUCAUUUCCAGGGGUGGGAAUUUUUUUUUAAUAUGUGUCAUGAAUAAUGUUGUUUUUGAAA	-0.13
AAGUCCUGUGCUACACAUCGUAUGUACCGAAUCGGAAAAAAAGGUUUUUGGUUUGGAAAGUAUUAUGUUACGCCGUUCGGAUCUGCACUU	-3.64
UGUGUCUUGCUGAAUCAGGGCUCUCUUAUCCCUGCCAUCGACUUACAGUGGGAAGAAGAUCUUCACCUGCACAGACCCGGGAACAGUCGG	-2.18
GUCCUGUGCUACACAUCGUAUGUACCGAAUCGGGCCCCCCGGCCCCCCGGCCCCCCGGAAAGUAUUAUGUUACGCCGUUCGGAUCUGCAC	1.18
UCAAGUCCUGUGCUACACAUCGUAUGUACCGAAUCGGGGUGGGGUGGGGUGGGGAAAGUAUUAUGUUACGCCGUUCGGAUCUGCACUUCC	-0.395
UAACUUUAGAGGAGGAUCUGAUGGCUAUGGCAGUGGACGUGGAUUUGGGGAUGGCUAUAAUGGGUAUGGAGGAGGACCUGGAGGUGGCAA	0.0402
